Published values gathered from unrelated publications.
Compare with care: the assays were run in different laboratories. Several values in a cell are separate wells, animals, samples, runs or records. ± gives the spread as reported.
Sequence of UniProt Q80YA3 (whole entry, looked up): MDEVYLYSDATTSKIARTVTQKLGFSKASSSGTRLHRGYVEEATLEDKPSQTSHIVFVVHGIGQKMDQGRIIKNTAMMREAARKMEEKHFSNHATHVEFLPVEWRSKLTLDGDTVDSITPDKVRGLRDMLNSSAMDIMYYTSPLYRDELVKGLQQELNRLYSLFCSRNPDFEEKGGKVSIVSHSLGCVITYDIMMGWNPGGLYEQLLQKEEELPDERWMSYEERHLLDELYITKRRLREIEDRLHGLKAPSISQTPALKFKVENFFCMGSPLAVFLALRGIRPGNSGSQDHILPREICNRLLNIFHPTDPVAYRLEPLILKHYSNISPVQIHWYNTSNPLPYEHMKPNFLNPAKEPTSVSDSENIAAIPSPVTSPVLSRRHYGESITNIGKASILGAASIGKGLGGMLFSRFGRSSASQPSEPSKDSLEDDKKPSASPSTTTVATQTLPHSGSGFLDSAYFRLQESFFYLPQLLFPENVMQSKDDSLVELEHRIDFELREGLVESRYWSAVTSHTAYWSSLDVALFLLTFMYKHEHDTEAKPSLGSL
Sequence of UniProt Q9ULW8 (whole entry, looked up): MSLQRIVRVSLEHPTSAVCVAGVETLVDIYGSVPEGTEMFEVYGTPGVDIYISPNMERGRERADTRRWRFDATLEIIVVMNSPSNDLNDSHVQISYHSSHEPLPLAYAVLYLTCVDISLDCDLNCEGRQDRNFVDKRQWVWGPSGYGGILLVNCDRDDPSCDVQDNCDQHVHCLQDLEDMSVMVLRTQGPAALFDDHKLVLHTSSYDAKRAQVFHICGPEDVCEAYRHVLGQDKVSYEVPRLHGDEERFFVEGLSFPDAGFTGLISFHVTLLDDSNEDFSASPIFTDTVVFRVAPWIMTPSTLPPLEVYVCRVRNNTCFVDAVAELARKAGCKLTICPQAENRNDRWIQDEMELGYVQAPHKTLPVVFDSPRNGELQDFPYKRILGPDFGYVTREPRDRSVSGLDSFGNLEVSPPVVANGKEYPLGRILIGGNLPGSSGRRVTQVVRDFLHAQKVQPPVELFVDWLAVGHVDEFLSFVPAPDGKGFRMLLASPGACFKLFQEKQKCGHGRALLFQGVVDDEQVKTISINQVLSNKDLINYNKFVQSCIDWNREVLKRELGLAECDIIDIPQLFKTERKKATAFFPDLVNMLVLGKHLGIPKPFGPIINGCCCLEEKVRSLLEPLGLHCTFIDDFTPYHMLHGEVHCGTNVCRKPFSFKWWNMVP
Sequence of UniProt D0VWV4 (whole entry, looked up): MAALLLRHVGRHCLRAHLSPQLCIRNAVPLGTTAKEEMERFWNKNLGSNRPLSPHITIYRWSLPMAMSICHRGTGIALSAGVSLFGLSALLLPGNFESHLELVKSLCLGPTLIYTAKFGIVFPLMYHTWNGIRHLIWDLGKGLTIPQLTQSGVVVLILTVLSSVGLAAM
Sequence of UniProt A5GZW8 (whole entry, looked up): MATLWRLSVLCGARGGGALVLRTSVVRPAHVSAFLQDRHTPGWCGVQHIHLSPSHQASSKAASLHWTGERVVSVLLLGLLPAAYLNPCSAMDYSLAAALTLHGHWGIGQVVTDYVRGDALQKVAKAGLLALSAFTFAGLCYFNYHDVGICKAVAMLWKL
Sequence of UniProt Q6DWJ6 (whole entry, looked up): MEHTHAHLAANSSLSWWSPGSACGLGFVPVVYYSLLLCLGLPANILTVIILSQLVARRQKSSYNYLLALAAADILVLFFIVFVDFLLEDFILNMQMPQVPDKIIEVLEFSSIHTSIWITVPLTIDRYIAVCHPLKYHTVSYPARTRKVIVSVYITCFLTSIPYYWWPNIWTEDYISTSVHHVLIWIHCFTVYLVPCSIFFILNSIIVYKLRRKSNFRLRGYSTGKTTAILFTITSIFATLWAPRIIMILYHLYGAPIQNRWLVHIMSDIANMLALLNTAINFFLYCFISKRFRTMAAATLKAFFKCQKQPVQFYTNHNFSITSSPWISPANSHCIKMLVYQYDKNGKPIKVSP
Sequence of UniProt Q007T0 (whole entry, looked up): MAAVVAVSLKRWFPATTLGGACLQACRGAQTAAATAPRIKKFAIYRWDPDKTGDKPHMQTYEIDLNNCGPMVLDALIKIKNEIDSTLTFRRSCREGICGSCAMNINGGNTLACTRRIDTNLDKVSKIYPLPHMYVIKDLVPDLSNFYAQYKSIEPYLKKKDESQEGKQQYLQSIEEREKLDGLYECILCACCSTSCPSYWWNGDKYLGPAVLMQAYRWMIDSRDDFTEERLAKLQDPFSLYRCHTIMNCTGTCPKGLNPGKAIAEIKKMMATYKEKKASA
Sequence of UniProt Q96KB5 (whole entry, looked up): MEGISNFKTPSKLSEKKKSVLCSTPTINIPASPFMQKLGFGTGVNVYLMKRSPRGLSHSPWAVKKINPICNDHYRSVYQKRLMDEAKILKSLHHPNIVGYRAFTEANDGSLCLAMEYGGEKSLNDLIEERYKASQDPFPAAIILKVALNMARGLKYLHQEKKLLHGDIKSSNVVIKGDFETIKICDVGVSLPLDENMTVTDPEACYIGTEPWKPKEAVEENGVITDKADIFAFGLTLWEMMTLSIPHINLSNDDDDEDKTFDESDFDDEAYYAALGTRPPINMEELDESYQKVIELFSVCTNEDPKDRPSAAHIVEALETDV
Sequence of UniProt Q13177 (whole entry, looked up): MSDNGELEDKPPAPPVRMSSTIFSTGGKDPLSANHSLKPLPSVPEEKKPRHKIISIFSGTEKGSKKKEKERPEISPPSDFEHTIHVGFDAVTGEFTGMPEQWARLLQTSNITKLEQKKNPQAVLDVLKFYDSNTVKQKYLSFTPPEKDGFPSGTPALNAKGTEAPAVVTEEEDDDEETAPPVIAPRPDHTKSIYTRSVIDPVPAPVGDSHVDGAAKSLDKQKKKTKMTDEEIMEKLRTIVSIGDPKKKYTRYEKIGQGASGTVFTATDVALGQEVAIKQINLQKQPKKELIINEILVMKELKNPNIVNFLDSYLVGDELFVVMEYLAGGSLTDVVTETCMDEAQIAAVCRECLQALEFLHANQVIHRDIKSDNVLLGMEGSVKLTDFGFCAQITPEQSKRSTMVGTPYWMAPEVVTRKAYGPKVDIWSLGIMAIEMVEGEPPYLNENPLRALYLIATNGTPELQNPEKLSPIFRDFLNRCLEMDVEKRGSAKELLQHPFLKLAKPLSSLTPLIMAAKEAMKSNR
Sequence of UniProt Q71U36 (whole entry, looked up): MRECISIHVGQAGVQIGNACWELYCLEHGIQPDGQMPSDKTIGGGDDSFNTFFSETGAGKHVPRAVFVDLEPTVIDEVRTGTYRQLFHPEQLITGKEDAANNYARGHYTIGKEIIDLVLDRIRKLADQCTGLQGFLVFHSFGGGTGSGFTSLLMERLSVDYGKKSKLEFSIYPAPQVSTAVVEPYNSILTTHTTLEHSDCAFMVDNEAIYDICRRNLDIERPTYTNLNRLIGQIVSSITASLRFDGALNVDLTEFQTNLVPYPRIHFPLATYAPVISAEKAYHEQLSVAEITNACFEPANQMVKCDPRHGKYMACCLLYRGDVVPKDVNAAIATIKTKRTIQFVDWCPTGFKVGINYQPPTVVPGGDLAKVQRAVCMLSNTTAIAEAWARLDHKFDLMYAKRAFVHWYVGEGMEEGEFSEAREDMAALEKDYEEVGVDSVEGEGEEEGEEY
Sequence of UniProt P0A988 (whole entry, unmodified, looked up): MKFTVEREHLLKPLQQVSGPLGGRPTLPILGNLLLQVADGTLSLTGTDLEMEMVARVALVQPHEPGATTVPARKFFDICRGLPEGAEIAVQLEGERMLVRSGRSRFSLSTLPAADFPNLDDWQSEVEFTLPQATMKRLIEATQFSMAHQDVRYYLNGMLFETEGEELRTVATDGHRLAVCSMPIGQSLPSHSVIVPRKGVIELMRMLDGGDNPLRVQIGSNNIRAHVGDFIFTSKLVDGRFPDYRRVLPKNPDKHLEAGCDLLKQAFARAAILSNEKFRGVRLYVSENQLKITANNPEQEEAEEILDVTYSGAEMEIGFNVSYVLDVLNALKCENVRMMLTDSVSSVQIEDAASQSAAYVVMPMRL
Sequence of UniProt P47936 (whole entry, looked up): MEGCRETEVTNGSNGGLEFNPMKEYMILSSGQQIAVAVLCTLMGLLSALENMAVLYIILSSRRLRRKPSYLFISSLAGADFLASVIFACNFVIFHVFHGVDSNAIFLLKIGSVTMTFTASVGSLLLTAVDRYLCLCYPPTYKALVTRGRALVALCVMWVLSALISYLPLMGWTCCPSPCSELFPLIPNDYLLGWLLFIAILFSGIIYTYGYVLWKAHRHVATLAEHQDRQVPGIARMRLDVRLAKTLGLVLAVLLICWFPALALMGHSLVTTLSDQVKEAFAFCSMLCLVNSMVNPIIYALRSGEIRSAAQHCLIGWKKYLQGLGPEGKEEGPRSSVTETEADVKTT
Sequence of UniProt P36507 (whole entry, looked up): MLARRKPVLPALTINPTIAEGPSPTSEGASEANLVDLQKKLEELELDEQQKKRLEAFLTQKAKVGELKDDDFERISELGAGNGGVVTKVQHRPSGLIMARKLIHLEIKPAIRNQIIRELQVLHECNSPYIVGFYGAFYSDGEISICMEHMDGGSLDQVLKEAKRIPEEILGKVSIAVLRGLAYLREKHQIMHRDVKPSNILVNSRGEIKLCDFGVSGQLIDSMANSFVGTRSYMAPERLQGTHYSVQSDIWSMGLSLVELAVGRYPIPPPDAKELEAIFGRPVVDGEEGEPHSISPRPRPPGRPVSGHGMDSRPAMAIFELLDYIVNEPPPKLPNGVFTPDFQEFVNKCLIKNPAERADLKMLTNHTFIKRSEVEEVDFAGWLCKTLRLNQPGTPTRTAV

With `O=C1NC2(CC2)COc2ncc(F)cc2[C@H]2COCCN2c2ccn3ncc1c3n2` the haematocrit was 39.9 ± 1.9% (Sprague-Dawley rats, female, blood; oral, 2.5 mg/kg/day, end of recovery, 4-week subacute toxicity).
For `COc1ccccc1-c1n[nH]c2nc(N[C@H]3CC[C@H](NS(=O)(=O)CC(C)C)CC3)ncc12`, the relative abundance was 3.02 (Tubulin alpha-1A chain (Homo sapiens, UniProt Q71U36); competitor, bead pull-down competition, measured: TUBA1A; Leishmania donovani extract; 10 µM; baseline: vehicle).
With `CC(C)[C@H]1NC(=O)C[C@H]2/C=C/CCSSC[C@@H](NC1=O)C(=O)N[C@H](Cc1cccc3ccccc13)C(=O)NCC(=O)O2` the inhibition was 7.9% (PBK (Homo sapiens, UniProt Q96KB5); enzyme activity, inhibitor; 10 µM).
For `O=C(Cc1ccc(Cl)cc1)N1CCN(CC(OCc2ccc3ccccc3c2)c2ccc(Cl)cc2Cl)CC1` (stereo not drawn), “activity vs control” read 160% (ULK1 (Homo sapiens, UniProt O75385); enzyme activity, inhibitor, ADP detection; 0.1 µM).
For `CC(C)CC(O)(CC(C)C)c1cn(C(=O)N2CCCC2)nn1`, “SILAC activity ratio” read 1.39 and 1.42 and 1.08 and 1.07 and 1.24 and 1.04 and 1.2 and 1.26 (Phospholipase DDHD1 (Ddhd1, Mus musculus, UniProt Q80YA3); probe labelling, inhibitor, competitive ABPP-SILAC, measured: Ddhd1; mouse T cells; concentration not given, 4 h, single peptide; baseline: treated over DMSO cells, lower = stronger inhibition).
`CC[C@H](C)[C@H](NC(=O)[C@H](CCCNC(=N)N)NC(=O)[C@H](CCCNC(=N)N)NC(=O)[C@H](CC(C)C)NC(=O)[C@H](Cc1ccccc1)NC(=O)CNC(=O)CNC(=O)[C@@H](N)Cc1ccc(O)cc1)C(=O)N[C@@H](CCCNC(=N)N)C(=O)N1CCC[C@H]1C(=O)N[C@@H](CCCCN)C(=O)N[C@@H](CC(C)C)C(=O)N[C@@H](CCCCN)C(=O)O` has an Emax of 61.7% and 53.1% (GPR139 (Homo sapiens, UniProt Q6DWJ6); G protein activation, agonist, BRET, measured: Gα11; HEK-293T/17; 40 µM; baseline: GαoA response).
The ΔH of `CC#CC(=O)NC[C@H](NC(=O)[C@H](CC1CCCCC1)NC(=O)[C@H](CCC(N)=O)NC(C)=O)C(=O)N[C@@H](CC(C)C)C(=O)N[C@@H](Cc1ccccc1)C(=O)O` is reported as -17 kcal/mol (Beta sliding clamp (Escherichia coli, UniProt P0A988); binding, isothermal titration calorimetry; 37 °C).
For `O=C(N[C@@H]1c2ccccc2C[C@H]1N1CCCC1)c1ccc(-c2ccnc3[nH]ccc23)nc1`, the remaining binding was 55% (MAP2K2 (Homo sapiens, UniProt P36507); binding, competition with immobilised ligand; 3 µM).
For `CCOC(=O)[C@@](CC)(CCCSCCOCCOCCNc1ccc([N+](=O)[O-])c2nonc12)NC(=O)c1ccc(C2CC2)c(Cc2ccc(F)cc2)n1`, the Emax was 69% (Cnr2 (Mus musculus, UniProt P47936); cAMP, agonist).
`O=C1NC(=O)c2c1c1cc(F)c[n+]3c1c1c2c2cc(O)ccc2[n]1[Ru-4]312([N]=C=S)[S+]3CC[S+]1CC[S+]2CC3` (stereo not drawn) gave a remaining activity of 42% (PAK2 (Homo sapiens, UniProt Q13177); enzyme activity; 100 nM, human enzyme, added: 10 µM ATP; baseline: untreated).
For `CS(C)(=O)=Nc1ccc(-c2ccc(-c3nc4cc(O[C@@H]5CO[C@H]6[C@@H]5OC[C@H]6O)[nH]c4cc3F)cc2)cc1`, the inhibition was -7% (ABL1 (Homo sapiens, UniProt P00519, H396P); enzyme activity, inhibitor; 10 µM).
With `CN(C)CCCSC(=S)N1CCN(C(=O)/C=C/c2coc3ccccc3c2=O)CC1` the MST response was 0.911 a.u. (Nucleoprotein (N, Tomato spotted wilt virus, UniProt P25999, R94A/Y184A); binding, microscale thermophoresis; 250 µM; dose series).
With `N[C@H](C(=O)N1CCCC1)C1CCN(c2nccc3c(-c4ncc(Cl)cc4Cl)cccc23)CC1` the kcat was 0.0199 s⁻¹ and 0.0175 s⁻¹ (PADI3 (Homo sapiens, UniProt Q9ULW8); enzyme activity; 0.6144 µM, added: Ca2+ 0.25 mM).
`O=C(CN1CN(c2ccccc2)C2(CCN(C(=O)c3cnc4[nH]ncc4c3)CC2)C1=O)NCC(F)(F)F` has an inhibition of under 50% (Non-receptor tyrosine-protein kinase TYK2, JH2 pseudokinase domain (TYK2, Homo sapiens, UniProt P29597); inhibitor; concentration not given).
With `CON(C(=O)c1cn(C)nc1C(F)F)C(C)Cc1c(Cl)cc(Cl)cc1Cl` (stereo not drawn) the reaction velocity was 0.00741 µM/s and 0.00685 µM/s (SDHD/SDHC/SDHB (Sus scrofa, UniProt A5GZW8+D0VWV4+Q007T0); enzyme activity, inhibitor, DCIP reduction; pig; 1 µM, added: DCIP 120 µM).
With `CN(C)[C@H]1C[C@@]23CC[C@@]4(O2)C(=CC[C@]2(C)[C@@H](c5ccc6ccncc6c5)CC[C@H]24)C=C3[C@@H](O)[C@@H]1O` the inhibition was -4% (PRKD3 (Homo sapiens, UniProt O94806); ATP probe labelling, inhibitor, KiNativ profiling; 1 µM).
With `CCOC(=O)[C@@H]1Cc2c(cc([N+](=O)[O-])cc2[N+](=O)[O-])[C@H](O)[C@]12C(=O)Nc1ccc(Br)cc12` the remaining binding was 84% (Tyrosine-protein kinase ABL1, phosphorylated (ABL1, Homo sapiens, UniProt P00519, T315I); binding, competition with immobilised ligand; 0.1 µM).
For `C[C@@H](N)C(=O)N[C@H](Cc1ccccc1)C(=O)N[C@@H](Cc1ccccc1)C(=O)N[C@@H](CC(=O)O)C(=O)O`, “fold loss of potency” read about 3 fold (uncharacterized protein (Aplysia californica, UniProt A0ABM0K1K5); IP1 accumulation; CHO-K1 transfected).

For quick reference, copied from above:
With `CN(C)CCCSC(=S)N1CCN(C(=O)/C=C/c2coc3ccccc3c2=O)CC1` the MST response was 0.911 a.u. (Nucleoprotein (N, Tomato spotted wilt virus, UniProt P25999, R94A/Y184A); binding, microscale thermophoresis; 250 µM; dose series).
`O=C1NC(=O)c2c1c1cc(F)c[n+]3c1c1c2c2cc(O)ccc2[n]1[Ru-4]312([N]=C=S)[S+]3CC[S+]1CC[S+]2CC3` (stereo not drawn) gave a remaining activity of 42% (PAK2 (Homo sapiens, UniProt Q13177); enzyme activity; 100 nM, human enzyme, added: 10 µM ATP; baseline: untreated).
